Measured values pooled from the literature.
Each numbered part is a random draw from the data of one study; scales do not carry over between parts. Several values in a cell are separate wells, animals, samples, runs or records. ± gives the spread as reported.
Sequence of UniProt Q8IYT8 (whole entry, looked up): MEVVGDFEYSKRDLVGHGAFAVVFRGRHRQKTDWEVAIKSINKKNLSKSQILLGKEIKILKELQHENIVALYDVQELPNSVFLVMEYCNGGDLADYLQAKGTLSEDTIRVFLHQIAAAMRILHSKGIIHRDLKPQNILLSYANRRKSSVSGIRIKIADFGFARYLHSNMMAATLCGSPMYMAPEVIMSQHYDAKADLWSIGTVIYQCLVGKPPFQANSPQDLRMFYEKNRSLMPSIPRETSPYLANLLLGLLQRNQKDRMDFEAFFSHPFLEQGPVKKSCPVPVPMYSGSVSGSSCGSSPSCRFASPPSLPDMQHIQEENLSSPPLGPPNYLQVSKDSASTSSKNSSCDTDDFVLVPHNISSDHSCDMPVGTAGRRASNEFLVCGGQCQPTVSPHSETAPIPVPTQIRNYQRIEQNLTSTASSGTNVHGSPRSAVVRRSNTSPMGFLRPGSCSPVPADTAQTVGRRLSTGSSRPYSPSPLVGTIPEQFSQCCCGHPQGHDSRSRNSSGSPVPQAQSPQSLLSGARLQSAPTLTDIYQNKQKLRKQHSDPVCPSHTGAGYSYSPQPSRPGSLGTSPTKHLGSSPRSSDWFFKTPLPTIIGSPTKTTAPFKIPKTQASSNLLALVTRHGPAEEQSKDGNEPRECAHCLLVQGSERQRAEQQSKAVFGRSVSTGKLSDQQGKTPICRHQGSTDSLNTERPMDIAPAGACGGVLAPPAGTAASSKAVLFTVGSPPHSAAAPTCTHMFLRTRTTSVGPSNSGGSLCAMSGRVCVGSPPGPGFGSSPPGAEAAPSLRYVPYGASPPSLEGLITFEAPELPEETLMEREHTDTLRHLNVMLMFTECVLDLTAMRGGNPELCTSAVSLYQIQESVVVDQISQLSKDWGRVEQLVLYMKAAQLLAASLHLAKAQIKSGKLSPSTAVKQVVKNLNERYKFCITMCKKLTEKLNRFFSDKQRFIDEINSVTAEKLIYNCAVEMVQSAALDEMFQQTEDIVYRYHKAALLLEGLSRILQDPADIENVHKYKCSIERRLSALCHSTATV

Sample 1
Compound: O=C(O)c1cc(-c2ccc(C3CCNCC3)cc2)c2ccc(-c3ccc(C(F)(F)F)cc3)cc2c1
Effect on: cell-free assay
Technique: competition with immobilised ligand
Concentration: 1 µM
target	remaining binding [%]
Calcium/calmodulin-dependent protein kinase type 1D (CAMK1D, Homo sapiens, UniProt Q8IU85)	100
Serine/threonine-protein kinase tousled-like 2 (TLK2, Homo sapiens, UniProt Q86UE8)	100
Dual specificity testis-specific protein kinase 1 (TESK1, Homo sapiens, UniProt Q15569)	100
Phosphatidylinositol 4,5-bisphosphate 3-kinase catalytic subunit alpha isoform (PIK3CA, Homo sapiens, UniProt P42336, I800L)	93
Muscle, skeletal receptor tyrosine-protein kinase (MUSK, Homo sapiens, UniProt O15146)	90
Protein kinase C iota type (PRKCI, Homo sapiens, UniProt P41743)	82
Serine/threonine-protein kinase BRSK2 (BRSK2, Homo sapiens, UniProt Q8IWQ3)	100
Serine/threonine-protein kinase ULK2 (ULK2, Homo sapiens, UniProt Q8IYT8)	100
Eukaryotic translation initiation factor 2-alpha kinase 1 (EIF2AK1, Homo sapiens, UniProt Q9BQI3)	98
Mitogen-activated protein kinase 1 (MAPK1, Homo sapiens, UniProt P28482)	97
Activin receptor type-1-like (ACVRL1, Homo sapiens, UniProt P37023)	100
Phosphatidylinositol 5-phosphate 4-kinase type-2 gamma (PIP4K2C, Homo sapiens, UniProt Q8TBX8)	100
eIF-2-alpha kinase GCN2, C-terminal kinase domain (EIF2AK4, Homo sapiens, UniProt Q9P2K8, S808G)	100
Serine/threonine-protein kinase WNK1 (WNK1, Homo sapiens, UniProt Q9H4A3)	100
Serine/threonine-protein kinase ULK1 (ULK1, Homo sapiens, UniProt O75385)	100
Fibroblast growth factor receptor 3 (FGFR3, Homo sapiens, UniProt P22607)	100

Sample 2
Target: DNA polymerase theta, ATPase domain (POLQ, Homo sapiens, UniProt O75417)
Sequence of UniProt O75417 (whole entry, unmodified, looked up): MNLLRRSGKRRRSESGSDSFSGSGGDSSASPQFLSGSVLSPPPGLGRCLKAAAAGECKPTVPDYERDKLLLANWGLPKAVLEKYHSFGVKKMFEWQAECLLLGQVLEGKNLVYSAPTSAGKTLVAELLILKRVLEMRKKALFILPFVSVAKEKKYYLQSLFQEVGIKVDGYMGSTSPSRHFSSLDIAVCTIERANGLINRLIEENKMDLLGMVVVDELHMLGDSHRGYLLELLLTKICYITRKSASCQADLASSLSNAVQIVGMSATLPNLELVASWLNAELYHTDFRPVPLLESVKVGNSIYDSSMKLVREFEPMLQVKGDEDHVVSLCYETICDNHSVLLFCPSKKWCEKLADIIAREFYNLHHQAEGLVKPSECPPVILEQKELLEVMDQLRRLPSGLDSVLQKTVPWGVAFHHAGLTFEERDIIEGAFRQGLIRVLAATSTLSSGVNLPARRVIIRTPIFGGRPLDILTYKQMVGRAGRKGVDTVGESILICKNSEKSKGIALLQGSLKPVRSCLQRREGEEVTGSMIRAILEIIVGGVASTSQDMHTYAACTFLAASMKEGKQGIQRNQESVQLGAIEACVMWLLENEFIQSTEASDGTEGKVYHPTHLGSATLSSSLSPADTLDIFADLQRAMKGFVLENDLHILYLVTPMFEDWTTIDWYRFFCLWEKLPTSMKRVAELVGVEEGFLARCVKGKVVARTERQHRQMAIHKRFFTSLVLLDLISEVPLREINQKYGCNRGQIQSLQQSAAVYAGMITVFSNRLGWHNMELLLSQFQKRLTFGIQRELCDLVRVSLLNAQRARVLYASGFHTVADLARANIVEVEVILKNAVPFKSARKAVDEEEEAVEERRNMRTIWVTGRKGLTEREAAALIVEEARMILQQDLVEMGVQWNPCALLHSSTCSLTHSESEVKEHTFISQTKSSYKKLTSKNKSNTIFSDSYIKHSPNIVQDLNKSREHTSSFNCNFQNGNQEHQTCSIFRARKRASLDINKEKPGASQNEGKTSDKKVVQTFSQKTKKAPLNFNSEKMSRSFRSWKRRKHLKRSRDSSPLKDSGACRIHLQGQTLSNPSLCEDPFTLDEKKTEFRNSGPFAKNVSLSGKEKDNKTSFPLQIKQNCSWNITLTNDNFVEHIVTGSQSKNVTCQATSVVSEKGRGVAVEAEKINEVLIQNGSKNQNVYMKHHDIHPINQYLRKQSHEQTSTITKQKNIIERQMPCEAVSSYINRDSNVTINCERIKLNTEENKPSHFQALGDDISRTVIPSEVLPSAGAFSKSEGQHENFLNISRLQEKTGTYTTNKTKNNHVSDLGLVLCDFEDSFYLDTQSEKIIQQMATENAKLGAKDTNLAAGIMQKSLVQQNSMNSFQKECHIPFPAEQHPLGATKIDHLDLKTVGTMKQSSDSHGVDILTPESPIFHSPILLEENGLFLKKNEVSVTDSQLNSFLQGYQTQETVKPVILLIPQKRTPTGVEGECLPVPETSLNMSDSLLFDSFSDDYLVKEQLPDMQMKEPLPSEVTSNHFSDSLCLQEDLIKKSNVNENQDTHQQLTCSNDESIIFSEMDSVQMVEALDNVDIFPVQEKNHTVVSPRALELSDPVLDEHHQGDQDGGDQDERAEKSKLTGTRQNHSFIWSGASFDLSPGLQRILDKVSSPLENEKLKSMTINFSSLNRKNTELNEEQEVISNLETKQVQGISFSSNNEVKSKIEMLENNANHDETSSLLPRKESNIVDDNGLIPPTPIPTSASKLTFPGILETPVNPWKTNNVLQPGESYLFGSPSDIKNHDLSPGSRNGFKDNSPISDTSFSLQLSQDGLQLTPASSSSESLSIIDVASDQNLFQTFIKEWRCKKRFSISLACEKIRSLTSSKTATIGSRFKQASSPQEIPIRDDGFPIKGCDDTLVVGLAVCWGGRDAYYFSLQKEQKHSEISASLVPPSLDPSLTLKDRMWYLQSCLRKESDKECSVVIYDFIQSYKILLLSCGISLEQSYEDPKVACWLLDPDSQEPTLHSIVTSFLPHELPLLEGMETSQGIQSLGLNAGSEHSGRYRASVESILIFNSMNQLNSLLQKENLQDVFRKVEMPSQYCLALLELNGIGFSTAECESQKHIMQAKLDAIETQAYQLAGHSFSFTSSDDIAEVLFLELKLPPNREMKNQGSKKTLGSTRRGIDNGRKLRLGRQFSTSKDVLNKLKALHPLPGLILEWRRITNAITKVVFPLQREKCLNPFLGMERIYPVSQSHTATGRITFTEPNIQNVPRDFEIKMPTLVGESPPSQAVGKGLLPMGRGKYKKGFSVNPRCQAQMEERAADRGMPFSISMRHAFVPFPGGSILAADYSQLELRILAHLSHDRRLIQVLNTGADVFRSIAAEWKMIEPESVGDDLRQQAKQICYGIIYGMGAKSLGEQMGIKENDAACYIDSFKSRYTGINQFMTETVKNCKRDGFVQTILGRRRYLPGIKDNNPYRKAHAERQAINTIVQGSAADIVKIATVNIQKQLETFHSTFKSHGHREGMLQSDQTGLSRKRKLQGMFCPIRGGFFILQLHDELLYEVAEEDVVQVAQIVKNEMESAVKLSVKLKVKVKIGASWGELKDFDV
Effect on: enzyme activity
Mode: inhibitor
Concentration: 77 µM
Reference: untreated
SMILES	remaining activity
O=C1Nc2ccc(Cl)cc2/C1=C/c1cc(Cl)c(O)c(Cl)c1	110%
O[C@@](CCN1CCCCC1)(c1ccccc1)[C@H]1C[C@@H]2C=C[C@H]1C2	95.1%
COc1cccc(OC)c1OCCNCC1CSc2ccccc2O1 (stereo not drawn)	100%

Sample 3
Target: UBC/CDC34 (Homo sapiens, UniProt P0CG48+P49427)
Sequence of UniProt P49427 (whole entry, looked up): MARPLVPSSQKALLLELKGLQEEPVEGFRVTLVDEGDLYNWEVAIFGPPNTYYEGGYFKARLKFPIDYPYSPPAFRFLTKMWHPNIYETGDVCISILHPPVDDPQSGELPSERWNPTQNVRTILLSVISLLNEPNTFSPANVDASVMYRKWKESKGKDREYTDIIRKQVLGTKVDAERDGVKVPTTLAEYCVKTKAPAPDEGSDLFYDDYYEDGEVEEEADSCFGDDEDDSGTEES
Technique: TR-FRET
SMILES	EC50 [µM]
CCC(=O)NC1(Cc2ccc(-c3cc(Cl)cc(Cl)c3)cc2)CCN(C(=O)COC)CC1	> 100
COCC(=O)N1CCC(Cc2ccc(-c3cc(Cl)cc(Cl)c3)cc2)(NC(C)=O)CC1	> 100
COCC(=O)N1CCC(Cc2ccc(-c3cc(Cl)cc(Cl)c3)cc2)(c2nnc(C)o2)CC1	> 100

Sample 4
Target: Serine/threonine-protein kinase pim-1 (PIM1, Homo sapiens, UniProt P11309)
Sequence of UniProt P11309 (whole entry, looked up): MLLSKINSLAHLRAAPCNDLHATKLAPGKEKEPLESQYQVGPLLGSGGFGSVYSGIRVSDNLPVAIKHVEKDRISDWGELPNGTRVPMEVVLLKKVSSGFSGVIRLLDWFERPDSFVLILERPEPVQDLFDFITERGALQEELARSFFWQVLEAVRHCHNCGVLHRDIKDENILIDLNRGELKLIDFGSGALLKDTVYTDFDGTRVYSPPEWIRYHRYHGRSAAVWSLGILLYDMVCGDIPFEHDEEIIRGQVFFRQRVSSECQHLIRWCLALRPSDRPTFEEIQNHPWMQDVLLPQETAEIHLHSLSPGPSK
Effect on: enzyme activity
Mode: inhibitor
Concentration: 0.5 µM
Reference: control
Compound	remaining activity [%]
O=C(O)/C=C/c1cc(Br)c(Br)c(Br)c1Br	16.2
c1cc(-c2cnn3cc(-c4ccc(OCCN5CCCCC5)cc4)cnc23)ccn1	96.7
O=C1c2ccccc2-c2nc3nnnn3nc21	94.1
C[C@@H](N)[C@H]1CC[C@H](C(=O)Nc2ccncc2)CC1	96.9
O=C1NC(=O)/C(=C/c2ccc3c(c2)OC(F)(F)O3)S1	35.9
CC(C)N(CCC(=O)c1ccc2ccccc2c1)Cc1ccccc1	100
Nc1nc(Nc2ccc(S(N)(=O)=O)cc2)nn1C(=S)Nc1c(F)cccc1F	90.7
O=c1c(-c2ccc(F)cc2)c(-c2ccncc2)[nH]n1-c1ccc(Cl)cc1	101
N#C/C(=C(/N)SC1C=CC=CC1)c1cccc(C(O)c2ccncc2)c1 (stereo not drawn)	96.7

Single results of other studies
Structure (SMILES)	system	conditions	endpoint	result
OCCN1CCN(CCCN2c3ccccc3Sc3ccc(Cl)cc32)CC1	mouse, serum	dose not given	serum total bilirubin	1.1 ± 0.5 mg/dL
COc1ccc(-c2c(Nc3ccccn3)[nH]c3c(C4=CCCCC4)c(-c4ccccc4)nn3c2=O)cc1	human, plasma	oral, 200 mg twice daily	fluctuation	55% and 24.4% and 47.6%

Repeated from above (sample 4):
Compound	remaining activity [%]
O=C1c2ccccc2-c2nc3nnnn3nc21	94.1
C[C@@H](N)[C@H]1CC[C@H](C(=O)Nc2ccncc2)CC1	96.9
O=C1NC(=O)/C(=C/c2ccc3c(c2)OC(F)(F)O3)S1	35.9
CC(C)N(CCC(=O)c1ccc2ccccc2c1)Cc1ccccc1	100
Nc1nc(Nc2ccc(S(N)(=O)=O)cc2)nn1C(=S)Nc1c(F)cccc1F	90.7
